Experimental data of several laboratories.
Compare with care: the assays were run in different laboratories. ± gives the spread as reported.

Compound	system	setting	endpoint	result
COC(=O)C[C@](O)(CCCC(C)(C)OC(C)=O)C(=O)O[C@@H]1C(OC)=C[C@]23CCCN2CCc2cc4c(cc2[C@H]13)OCO4	CD1 mouse, large intestine	oral, 1 mg/kg, 0.5 h	tissue concentration	79.4 ng/mL
O=C(O)CC[C@H](NC(=O)O[C@@H](CCCCNC(=O)c1ccc([18F])cc1)C(=O)O)C(=O)O	mouse, PC-3 PIP/flu xenografts, large intestine	90 min	tissue uptake	0.18 ± 0.03 %ID/g
N=C(N)NCc1ccc(C(=O)NCCCC[C@H](NC(=O)CCCCCCC(=O)NCCCC[C@H](NC(=O)N[C@@H](CCC(=O)O)C(=O)O)C(=O)O)C(=O)O)cc1[211At]	SCID mouse, PC-3 xenografts, thyroid	1 h	tissue uptake	0.51 ± 0.16 %ID/g
CC[C@H](C)[C@H](NC(=O)[C@@H](Cc1c[nH]c2ccccc12)NC(=O)[C@@H]1CCCN1C(=O)[C@H](CCCCN)NC(=O)[C@H](CCCCN)NC(=O)CCNC(=O)CCNC(=O)CN1CCN(CC(=O)O)CCN(CC(=O)O)CCN(CC(=O)O)CC1)C(=O)N[C@@H](C[Si](C)(C)C)C(=O)O [gallium-68 labelled]	mouse, HT-29 xenograft, nude, kidneys	90 min, ex vivo biodistribution, unblocked	tissue uptake	30.1 ± 18.4 %ID/g
COc1cc2ncnc(Oc3cccc(N[11C](=O)Nc4cc(C(C)(C)C(F)(F)F)on4)c3)c2cc1OC	Balb/c nude mouse, female, A375 melanoma xenograft, kidney	6.6 MBq, 30 min	tissue uptake	6.82 ± 0.27 %ID/g
N=C(N)NCc1ccc(C(=O)NCCCC[C@H](NC(=O)N[C@@H](CCC(=O)O)C(=O)O)C(=O)O)cc1[211At]	SCID mouse, PC-3 xenografts, thyroid	21 h	tissue uptake	0.88 ± 0.13 %ID/g
CN[C@](C)(C[18F])C(=O)O	SCID mouse U87 xenograft, kidney	30 min, post injection	tissue uptake	9.2 ± 2.1 %ID/g
N=C(N)NCc1ccc(C(=O)NCCCC[C@H](NC(=O)CCCCCCC(=O)NCCCC[C@H](NC(=O)N[C@@H](CCC(=O)O)C(=O)O)C(=O)O)C(=O)O)cc1[131I]	SCID mouse, PC-3 xenografts, kidneys	2 h	tissue uptake	110 ± 37 %ID/g
C=Cc1cc(O)cc2nc(-c3ccc(O)c([76Br])c3)oc12	female C57BL/6 mouse, blood	6 h, high dose	tissue uptake	0.09 ± 0.01 %ID/g

Some of these lines once more:
Compound	system	setting	endpoint	result
N=C(N)NCc1ccc(C(=O)NCCCC[C@H](NC(=O)CCCCCCC(=O)NCCCC[C@H](NC(=O)N[C@@H](CCC(=O)O)C(=O)O)C(=O)O)C(=O)O)cc1[211At]	SCID mouse, PC-3 xenografts, thyroid	1 h	tissue uptake	0.51 ± 0.16 %ID/g
